Experimental data of several laboratories.
Each numbered part is a random draw from the data of one study; scales do not carry over between parts. Positions count from the first letter of the parent shown.

Study 1
Target: Interferon regulatory factor 3, full length, phosphomimetic (IRF3, Homo sapiens, UniProt Q14653, residues 1-427, S386D/S396D/S398D/S402D/T404D/S405D)
Method: protein-binding microarray
Molecule type: double-stranded DNA, one strand shown
Sample: in vitro
Tested at: 2540 nM top
Setting: 60-bp whole probe
With: salmon DNA 0.4 mg/ml
Baseline: random background probes
Reading: higher = stronger binding
Constant ends, left off below: GCCTAGCAC … GTGCTAGGTCTTGATTCGCTTGACGCTGCTG
Residues (chain): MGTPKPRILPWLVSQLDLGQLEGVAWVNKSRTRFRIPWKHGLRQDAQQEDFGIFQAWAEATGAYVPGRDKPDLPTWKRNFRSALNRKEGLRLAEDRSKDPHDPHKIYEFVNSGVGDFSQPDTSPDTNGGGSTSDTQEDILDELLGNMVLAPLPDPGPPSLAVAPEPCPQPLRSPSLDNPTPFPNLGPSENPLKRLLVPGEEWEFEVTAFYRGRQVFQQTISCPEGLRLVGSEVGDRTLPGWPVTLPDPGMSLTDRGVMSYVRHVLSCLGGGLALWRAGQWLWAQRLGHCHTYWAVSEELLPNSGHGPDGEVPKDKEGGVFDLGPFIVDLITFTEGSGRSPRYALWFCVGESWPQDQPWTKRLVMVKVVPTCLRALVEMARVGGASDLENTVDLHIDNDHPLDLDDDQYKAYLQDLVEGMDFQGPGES
Under “fitted relative affinity”, `CATTTTCTAAATTCCCTAGT` is recorded as 4.06 z-score.
Under “fitted relative affinity”, `TTTACTTTCTTTTTTTCTTT` is recorded as 6.81 z-score.
`TTAGGTATAGGTCTCGGTTA` — result for “fitted relative affinity”: -0.322 z-score.
Under “fitted relative affinity”, `TTAGTTTTCGGTATCGGTTA` is recorded as 6.04 z-score.
For `TCATCTGTTCTTTTCAGACT`, “fitted relative affinity” read 1.82 z-score.
Under “fitted relative affinity”, `TTAGGATCCCTTTTCCTTTA` is recorded as 7.38 z-score.

Study 2
Target: Histone acetyltransferase KAT6A, winged helix 2, GST fusion (KAT6A, Homo sapiens, UniProt Q92794, residues 85-181)
Method: protein binding microarray
Molecule type: double-stranded DNA, one strand shown
Sample: in vitro
Tested at: not given
Setting: 8-mer, flanks averaged, mean of 2 arrays, mostly near background
Baseline: not given
Reading: higher = stronger binding
Residues (chain): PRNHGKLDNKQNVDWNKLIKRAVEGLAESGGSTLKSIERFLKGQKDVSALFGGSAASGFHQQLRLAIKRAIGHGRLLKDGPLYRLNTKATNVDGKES
For `ACACTCCG`, the E-score was -0.134.
With `CGGACCAG` the E-score was 0.0863.
`GCTCTACA` gave an E-score of 0.0592.
For `CAGCTCAG`, the E-score was -0.0309.
For `AATCAACC`, the E-score was -0.116.
With `CACCATCC` the E-score was -0.233.
`CTTATCCC` has an E-score of -0.175.
With `ACAAAACT` the E-score was 0.0485.
For `AGAAATCG`, the E-score was -0.0187.
`ACATGCTC` has an E-score of -0.0131.
The E-score of `ACTTTTCA` is reported as -0.219.
The E-score of `CCAAGTCC` is reported as -0.241.
`AATTTGAA` has an E-score of -0.0236.

Study 3
Target: ABI1, truncated, D143A, DHFR fusion (Arabidopsis thaliana)
Method: DHFR PCA, deep sequencing
Sample: yeast
Setting: methotrexate growth selection, single substitutions
With: (+)-ABA 200 µM
Baseline: wild-type fitted maximum
Reading: higher = stronger binding
Parent: PYL1, truncated, DHFR fusion (Arabidopsis thaliana); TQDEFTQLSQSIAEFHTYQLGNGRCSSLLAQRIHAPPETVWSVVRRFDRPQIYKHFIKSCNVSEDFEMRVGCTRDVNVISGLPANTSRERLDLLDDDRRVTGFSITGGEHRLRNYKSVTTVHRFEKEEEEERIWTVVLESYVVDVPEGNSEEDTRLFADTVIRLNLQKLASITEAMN
For `R123F`, “relative binding score” read 79.3%.
`N177I`: “relative binding score” 98.5%.
For `E174V`, “relative binding score” read 88.6%.
`E38G` — result for “relative binding score”: 92.3%.
`F47A` — result for “relative binding score”: -3.14%.
Under “relative binding score”, `N61H` is recorded as 95.5%.
For `C25L`, “relative binding score” read 85.2%.
`Y141H`: “relative binding score” 16.1%.
`R111Q` — result for “relative binding score”: 70.8%.

Study 4
Target: Fragile X messenger ribonucleoprotein 1, C-terminal low-complexity region (Fmr1, Mus musculus, UniProt P35922)
Method: RNA Bind-n-Seq
Molecule type: RNA
Sample: in vitro
Tested at: 200 nM
Setting: whole 134-nt RNA, ends assumed
With: 150 mM KCl
Baseline: input library
Reading: higher = stronger binding
The log2 enrichment of `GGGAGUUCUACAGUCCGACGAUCCCUGUGCUACACAUCGUAUGUACCGAAUCGGGAAAAAAAGGGAAAAAAAGGGUUUUUGGGAAAGUAUUAUGUUACGCCGUUCGGAUCUGCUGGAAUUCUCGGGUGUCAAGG` is reported as -0.683.
The log2 enrichment of `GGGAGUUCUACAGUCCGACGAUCGCAGGAAGUAAAAACAAAUGGAAACGCUUCGGAUAGUGGCAGGGGUGGGGGUUGCUAAGGAAAGGGUGGGAUGGGAGUGGGUAAAGAGUUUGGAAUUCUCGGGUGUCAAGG` is reported as 0.203.
`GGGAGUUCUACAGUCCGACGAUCUCAAGUCCUGUGCUACACAUCGUAUGUACCGAAUCGGAAAGGUUUUUGGAAAGGAAAGUAUUAUGUUACGCCGUUCGGAUCUGCACUUCCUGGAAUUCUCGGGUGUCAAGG` gave a log2 enrichment of -0.829.
`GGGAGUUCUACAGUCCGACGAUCCACAGACAACACGCACCCACACAGACACAGAGGGAAGGGGUUGGGAUGGGGAAAGGGUGCACAGCAGGGCGGGGUAGGACCCCAGCCCCUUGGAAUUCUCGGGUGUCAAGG` has a log2 enrichment of 1.16.
For `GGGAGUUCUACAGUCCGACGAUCUCAAGUCCUGUGCUACACAUCGUAUGUACCGAAUCGGGAAGGGAAGGGGAAGGGAAAGUAUUAUGUUACGCCGUUCGGAUCUGCACUUCCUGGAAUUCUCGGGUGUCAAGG`, the log2 enrichment was 0.755.
`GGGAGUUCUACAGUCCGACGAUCUGUUGGGCUUCGAUCCCAGGUGGAUGAUGAUGCCUUCCUACAUGGACCCACGUAUCACGCCCACUCGGACCCCGGUGGACUUCUACCCCUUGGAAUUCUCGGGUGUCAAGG` has a log2 enrichment of -0.0885.
With `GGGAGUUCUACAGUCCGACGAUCAAGUCCUGUGCUACACAUCGUAUGUACCGAAUCGGGAAAGGGUUUGGGAAAAAGGGAAAGUAUUAUGUUACGCCGUUCGGAUCUGCACUUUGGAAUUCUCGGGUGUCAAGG` the log2 enrichment was -0.0624.
